Assay results from different studies.
Every numbered part comes from another study and shows a few of its results, in no order. Values joined by “and” are separate records of one study, mostly repeats; a detail may differ. pIC50: −log10 of the molar value.
Chain of UniProt Q9UKR3 (whole entry, looked up): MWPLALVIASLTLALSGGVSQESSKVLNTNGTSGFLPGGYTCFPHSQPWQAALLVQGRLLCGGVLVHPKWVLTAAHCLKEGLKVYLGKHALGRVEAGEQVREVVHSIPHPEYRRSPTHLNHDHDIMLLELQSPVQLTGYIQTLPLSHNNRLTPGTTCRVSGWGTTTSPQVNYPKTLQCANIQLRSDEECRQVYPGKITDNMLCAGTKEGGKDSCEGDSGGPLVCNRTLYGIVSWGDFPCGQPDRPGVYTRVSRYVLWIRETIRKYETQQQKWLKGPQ
Chain of UniProt Q9Y337 (whole entry, looked up): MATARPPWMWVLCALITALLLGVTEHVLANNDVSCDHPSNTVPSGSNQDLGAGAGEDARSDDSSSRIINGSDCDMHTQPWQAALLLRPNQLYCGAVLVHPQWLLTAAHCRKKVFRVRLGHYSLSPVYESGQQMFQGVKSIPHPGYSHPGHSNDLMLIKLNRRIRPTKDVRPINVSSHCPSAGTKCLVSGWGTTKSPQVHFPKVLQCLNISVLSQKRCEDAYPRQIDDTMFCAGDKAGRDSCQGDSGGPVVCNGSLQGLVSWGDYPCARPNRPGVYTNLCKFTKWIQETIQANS
Chain of UniProt Q8IU80 (whole entry, looked up): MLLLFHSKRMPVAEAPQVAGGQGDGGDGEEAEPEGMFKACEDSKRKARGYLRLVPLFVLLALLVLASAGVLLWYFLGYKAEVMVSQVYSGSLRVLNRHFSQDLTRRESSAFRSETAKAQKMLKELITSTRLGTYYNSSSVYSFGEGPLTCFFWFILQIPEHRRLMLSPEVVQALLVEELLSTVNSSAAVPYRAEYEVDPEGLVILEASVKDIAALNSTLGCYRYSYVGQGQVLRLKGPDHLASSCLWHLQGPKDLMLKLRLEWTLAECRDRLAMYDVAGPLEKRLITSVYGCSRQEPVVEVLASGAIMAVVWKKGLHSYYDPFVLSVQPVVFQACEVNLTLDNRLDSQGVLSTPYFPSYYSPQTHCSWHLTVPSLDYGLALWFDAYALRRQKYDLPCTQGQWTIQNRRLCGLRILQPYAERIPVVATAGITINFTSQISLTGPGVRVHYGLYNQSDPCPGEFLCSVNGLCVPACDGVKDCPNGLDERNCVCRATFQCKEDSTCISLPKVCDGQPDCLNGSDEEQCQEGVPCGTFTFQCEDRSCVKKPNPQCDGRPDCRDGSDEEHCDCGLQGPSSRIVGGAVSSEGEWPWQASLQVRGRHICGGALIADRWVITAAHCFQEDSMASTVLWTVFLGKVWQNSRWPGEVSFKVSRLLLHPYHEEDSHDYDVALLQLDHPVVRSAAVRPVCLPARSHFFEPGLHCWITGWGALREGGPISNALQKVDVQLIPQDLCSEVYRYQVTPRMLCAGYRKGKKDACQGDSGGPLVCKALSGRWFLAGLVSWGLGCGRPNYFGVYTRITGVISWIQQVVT
Chain of UniProt P62344 (whole entry, looked up): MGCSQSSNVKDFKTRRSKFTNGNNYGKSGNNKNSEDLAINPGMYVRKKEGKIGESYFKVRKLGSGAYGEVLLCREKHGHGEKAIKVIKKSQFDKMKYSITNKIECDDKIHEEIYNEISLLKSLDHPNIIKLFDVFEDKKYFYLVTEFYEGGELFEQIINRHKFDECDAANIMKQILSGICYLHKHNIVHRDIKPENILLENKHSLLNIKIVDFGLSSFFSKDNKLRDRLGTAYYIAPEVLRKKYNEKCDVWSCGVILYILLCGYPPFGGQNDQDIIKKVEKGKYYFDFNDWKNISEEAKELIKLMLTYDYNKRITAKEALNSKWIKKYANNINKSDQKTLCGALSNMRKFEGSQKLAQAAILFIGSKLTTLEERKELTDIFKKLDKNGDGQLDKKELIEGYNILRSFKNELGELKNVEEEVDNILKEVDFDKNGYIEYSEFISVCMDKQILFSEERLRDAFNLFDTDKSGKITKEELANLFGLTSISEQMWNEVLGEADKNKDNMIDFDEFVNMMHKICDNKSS

Study 1 — Structure (SMILES): CCOC(=O)c1ccc(OC(=O)CCCCCNC(=N)N)cc1
target | pIC50
Transmembrane protease serine 6 (Homo sapiens, UniProt Q8IU80) | 5.40
Kallikrein-13 (Homo sapiens, UniProt Q9UKR3) | 4.87 and < 5.00
Kallikrein-5 (Homo sapiens, UniProt Q9Y337) | 5.12

Study 2 — SMILES: CCOc1ccc(Nc2c3c(nc4ccccc24)CCC3)cc1; organism: Leishmania donovani
assay | system | conditions | inhibition
parasite growth | DD8 amphotericin B-resistant, intracellular amastigotes | 0.004 µM | 1% and 5% and 2%
parasite killing | DD8, promastigotes | 0.66 µM, 48 h | 24% and 23% and 20%
parasite growth | – | 20 µM, intracellular, amastigote | 81%

Mixed results
SMILES | tested on | assay | conditions | quantity | value
CC[C@H]1C(=O)N[C@@H](CC(C)C)C(=O)N2CCC[C@@H]2C(=O)N(C)[C@@H](Cc2ccccc2)C(=O)N[C@@H](CC(C)C)C(=O)N(C)[C@H](C)C(=O)N1C | – | – | pH 7.4, average | logD | 2.17
CC(=O)c1c(NS(C)(=O)=O)c2cc(-c3ccc(Cl)cc3)c(-c3ccc(Cl)cc3Cl)nc2n(C)c1=O | Calcium-dependent protein kinase 1 (CDPK1, Plasmodium falciparum, UniProt P62344) | cell-free assay, competition with immobilised ligand | 1 µM | remaining binding | 99%

Some of these lines once more (study 1):
target | pIC50
Transmembrane protease serine 6 (Homo sapiens, UniProt Q8IU80) | 5.40
